Published values of several laboratories.
Lines come from different studies, so protocols differ. Values joined by “and” are separate records of one study, mostly repeats; a detail may differ. Numbers after ± are the reported error.
rep main protease: Replicase polyprotein 1ab, main protease (rep, Severe acute respiratory syndrome coronavirus 2, UniProt P0DTD1)
rep papain-like protease: Replicase polyprotein 1ab, papain-like protease (rep, Severe acute respiratory syndrome coronavirus 2, UniProt P0DTD1)

SMILES	tested on	test	test system	setting	quantity	result
COc1cc(OC)cc(C(=O)N(CCC(=O)N2CCNCC2)Cc2cccc(Cl)c2)c1	Replicase polyprotein 1ab, nsp3 macrodomain (rep, Severe acute respiratory syndrome coronavirus 2, UniProt P0DTD1)	ADP-ribose binding, inhibitor, fluorescence polarization		Mac1 domain, SARS-CoV-2	IC50	68000 ± 29800 nM
Nc1nnc(SC2CC(=O)N(c3cccc4ccccc34)C2=O)s1 (centres unmarked)	rep main protease	enzyme activity, inhibitor		10 min preincubation	IC50	1520 ± 40 nM
COc1ccc(-c2noc(CNC(=O)C3C(C)=C3c3ccccc3)n2)cc1 (centres unmarked)	rep main protease	enzyme activity, inhibitor, FRET			IC50	39300 nM
O=c1cc(-c2ccc(O)c(O)c2)oc2cc(O[C@@H]3O[C@H](CO)[C@@H](O)[C@H](O)[C@H]3O)cc(O)c12	Replicase polyprotein 1ab, nsp13 helicase (rep, Severe acute respiratory syndrome coronavirus 2, UniProt P0DTD1)	helicase unwinding activity			IC50	> 30000 nM
O=C(CCc1ccccc1)NOC(=O)OCc1ccccc1	rep main protease	enzyme activity, inhibitor, FRET			IC50	120 nM
Cc1cc(C)nc(Sc2nc3sccn3c2[N+](=O)[O-])n1	rep main protease	enzyme activity, inhibitor, FRET			IC50	75600 nM
CN(C)CCCCCNC(=O)C[C@H](Cc1ccc(F)cc1)NC(=O)[C@@H](Cc1ccc(Cl)cc1Cl)NC(=O)[C@H](N)Cc1ccccc1C#N	rep main protease	enzyme activity, inhibitor, fluorescence			IC50	10 nM
CC(C)[C@@H]1CC[C@@H](C)C[C@H]1NC(=O)c1ccccc1[Se][Se]c1ccccc1C(=O)N[C@@H]1C[C@H](C)CC[C@H]1C(C)C	rep main protease	enzyme activity, inhibitor			IC50	8330 nM
O=C(/C=C/c1ccc(O)cc1)OC[C@H]1O[C@@H](Oc2cc(O)c3c(=O)cc(-c4ccc(O)cc4)oc3c2)[C@H](O)[C@@H](OC(=O)/C=C/c2ccc(O)cc2)[C@@H]1O	rep main protease	enzyme activity, inhibitor		together with: fluorogenic substrate	IC50	8350 ± 350 nM
O=C(c1cncc2cc[nH]c12)N1CCC(=C2c3ccccc3CS(=O)(=O)c3ccccc32)CC1	rep main protease	enzyme activity, inhibitor			IC50	9 nM and 8.9 nM
CC1CC(c2ccc(C(=O)NS(C)(=O)=O)cc2)=NN1c1ccc(C#N)c(Cl)c1 (centres unmarked)	Replicase polyprotein 1ab, methyltransferase (rep, Severe acute respiratory syndrome coronavirus 2, UniProt P0DTD1)	enzyme activity, inhibitor			IC50	1890 nM
N#Cc1ccccc1CC(N)C(=O)NC(Cc1ccc(Cl)cc1Cl)C(=O)NC(CC(=O)NCCCc1cccnc1)Cc1ccc(F)cc1 (centres unmarked)	rep main protease	enzyme activity, inhibitor, fluorescence			IC50	40 nM
CCC(C(=O)Nc1ccccc1OC)n1cccc2nc(SCc3ccc(F)cc3)nc1-2 (centres unmarked)	rep papain-like protease	enzyme activity, inhibitor			IC50	8150 nM
COc1cc([C@H]2OC[C@H]3[C@@H]2CO[C@@H]3c2ccc3c(c2)OCO3)ccc1O	rep main protease	enzyme activity, inhibitor, FRET			IC50	16300 ± 830 nM
O=C(NCCc1cccnc1)C(c1cncnc1)N(C(=O)C(F)Cl)c1ccc(S(F)(F)(F)(F)F)cc1 (centres unmarked)	rep main protease	enzyme activity, inhibitor			IC50	140 nM
CCCCCCCCCCCCCCCC(=O)N[C@@H](CCC(=O)NCCOCCOCCC(=O)NCCOCCOCCC(=O)NCCCC[C@H](NC(=O)[C@H](CC(=O)O)NC(=O)[C@H](CC(C)C)NC(=O)[C@H](Cc1ccc(O)cc1)NC(=O)[C@H](CCCCN)NC(=O)[C@H](CO)NC(=O)[C@H](Cc1ccc(O)cc1)NC(=O)[C@H](CC(=O)O)NC(=O)[C@H](CO)NC(=O)[C@@H](NC(=O)[C@H](Cc1ccccc1)NC(=O)[C@@H](NC(=O)CNC(=O)[C@H](CCC(N)=O)NC(=O)[C@@H](CO)NC(=O)[C@@H](N)Cc1c[nH]cn1)[C@@H](C)O)[C@@H](C)O)C(=O)N[C@@H](CCCNC(=N)N)C(=O)N[C@@H](CCCNC(=N)N)C(=O)N[C@@H](C)C(=O)N[C@@H](CCC(N)=O)C(=O)N[C@@H](CC(=O)O)C(=O)N[C@@H](Cc1ccccc1)C(=O)N[C@H](C(=O)N[C@@H](CCC(N)=O)C(=O)N[C@@H](Cc1c[nH]c2ccccc12)C(=O)N[C@@H](CC(C)C)C(=O)N[C@@H](CC(C)C)C(=O)N[C@@H](CC(N)=O)C(=O)N[C@H](C(=O)NCC(=O)NCC(=O)N1CCC[C@H]1C(=O)N[C@@H](CO)C(=O)N[C@@H](CO)C(=O)NCC(=O)N[C@@H](C)C(=O)N1CCC[C@H]1C(=O)N1CCC[C@H]1C(=O)N1CCC[C@H]1C(=O)N[C@@H](CO)C(N)=O)[C@@H](C)O)C(C)C)C(=O)O			rhesus monkey, male, plasma	subcutaneous, 60 µg/kg, day 28, toxicokinetics, mean	AUC(0-t)	369 ng·h/mL
Oc1cc(O)c2c(c1)OC(c1ccc(O)c(O)c1)C(OC1(c3ccc(O)c(O)c3)Oc3cc(O)cc(O)c3C(O)C1O)C2 (centres unmarked)	rep papain-like protease	enzyme activity, inhibitor, fluorescence		pH 7.5	IC50	2400 nM

Some of these lines once more:
SMILES	tested on	test	test system	setting	quantity	result
O=C(c1cncc2cc[nH]c12)N1CCC(=C2c3ccccc3CS(=O)(=O)c3ccccc32)CC1	rep main protease	enzyme activity, inhibitor			IC50	9 nM and 8.9 nM
